# Results of several laboratories.
# Numbers after ± are the reported error.
# UniProt P53779, sequence (whole entry, looked up): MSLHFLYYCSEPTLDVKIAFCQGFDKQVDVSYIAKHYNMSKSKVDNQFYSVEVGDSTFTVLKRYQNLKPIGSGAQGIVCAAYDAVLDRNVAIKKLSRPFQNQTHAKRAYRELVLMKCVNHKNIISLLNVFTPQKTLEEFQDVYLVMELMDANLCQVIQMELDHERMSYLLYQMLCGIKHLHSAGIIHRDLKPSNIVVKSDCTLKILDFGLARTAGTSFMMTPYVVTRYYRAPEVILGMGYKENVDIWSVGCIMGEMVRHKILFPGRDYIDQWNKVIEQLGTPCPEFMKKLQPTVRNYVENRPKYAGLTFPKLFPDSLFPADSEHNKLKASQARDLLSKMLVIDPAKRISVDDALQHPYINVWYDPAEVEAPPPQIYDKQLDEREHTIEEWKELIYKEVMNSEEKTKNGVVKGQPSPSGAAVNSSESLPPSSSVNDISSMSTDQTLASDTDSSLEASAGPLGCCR
# UniProt P35232, sequence (whole entry, looked up): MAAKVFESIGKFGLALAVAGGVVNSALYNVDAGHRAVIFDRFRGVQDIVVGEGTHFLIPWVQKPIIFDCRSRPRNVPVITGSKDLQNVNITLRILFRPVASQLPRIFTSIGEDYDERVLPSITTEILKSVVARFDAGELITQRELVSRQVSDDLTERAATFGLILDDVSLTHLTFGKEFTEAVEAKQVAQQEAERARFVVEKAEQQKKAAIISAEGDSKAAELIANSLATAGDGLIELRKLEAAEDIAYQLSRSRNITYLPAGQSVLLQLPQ
# UniProt O75388, sequence (whole entry, looked up): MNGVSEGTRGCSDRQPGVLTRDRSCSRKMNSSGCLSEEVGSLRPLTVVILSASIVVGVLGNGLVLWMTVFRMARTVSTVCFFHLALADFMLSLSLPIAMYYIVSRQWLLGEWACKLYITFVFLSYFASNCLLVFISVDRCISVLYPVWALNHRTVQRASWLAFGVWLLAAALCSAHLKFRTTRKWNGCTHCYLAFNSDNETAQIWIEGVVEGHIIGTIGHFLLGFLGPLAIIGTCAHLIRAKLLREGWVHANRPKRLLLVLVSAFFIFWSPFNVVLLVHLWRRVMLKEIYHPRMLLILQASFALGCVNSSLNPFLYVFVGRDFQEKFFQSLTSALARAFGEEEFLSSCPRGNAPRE
# UniProt P17405, sequence (whole entry, looked up): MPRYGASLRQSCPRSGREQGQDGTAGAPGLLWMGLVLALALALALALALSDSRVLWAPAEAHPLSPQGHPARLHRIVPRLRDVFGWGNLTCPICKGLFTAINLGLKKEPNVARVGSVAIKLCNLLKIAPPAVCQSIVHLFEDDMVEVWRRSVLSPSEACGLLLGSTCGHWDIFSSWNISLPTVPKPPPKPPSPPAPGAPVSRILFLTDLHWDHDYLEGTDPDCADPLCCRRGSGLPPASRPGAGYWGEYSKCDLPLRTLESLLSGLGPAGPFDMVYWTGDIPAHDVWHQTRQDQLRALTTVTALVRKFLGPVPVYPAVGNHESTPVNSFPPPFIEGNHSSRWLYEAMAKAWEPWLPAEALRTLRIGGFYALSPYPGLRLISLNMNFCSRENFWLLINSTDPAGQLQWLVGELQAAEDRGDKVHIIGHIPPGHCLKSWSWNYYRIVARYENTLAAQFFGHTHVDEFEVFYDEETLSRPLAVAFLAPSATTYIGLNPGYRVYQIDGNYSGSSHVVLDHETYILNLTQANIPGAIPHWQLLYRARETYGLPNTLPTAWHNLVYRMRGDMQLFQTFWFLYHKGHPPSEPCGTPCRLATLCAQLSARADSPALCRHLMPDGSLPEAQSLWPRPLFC
Structure (SMILES),target or system,test,test system,conditions,scale,quantity,result
N.N.[Cl][Pt][Cl],MDA-MB-468,cell viability,,"48 h, light irradiation 2.5 min",,IC50,6.82 ± 0.23 µM
C/C1=C/C(=O)O[C@@H]2C[C@@H](CC[C@H](C)/C=C\C=C\CC1)O[C@@](OCCc1ccccc1)([C@@H]1CSC(=O)N1)C2,MDA-MB-231,"cell invasion, Cultrex BME invasion",,concentration not given,,IC50,0.1 µM
C[C@H]1CN(c2n[nH]c3nc(N[C@H]4CC[C@H](NS(=O)(=O)CCC(F)(F)F)CC4)ncc23)CCO1,"Prohibitin 1 (PHB1, Homo sapiens, UniProt P35232)","competitor, Kinobeads competition",human cell extract,0.16 µM,baseline: vehicle,relative abundance,1.02
Cc1cc(N(CCOS(C)(=O)=O)CCOS(C)(=O)=O)ccc1C(=O)O,SN12K1,cell growth,,,,IC50,19.7 mg/L
COc1ccc(N2C(=O)N(c3c(C)cccc3Cl)Cc3cnc(Nc4ccc(C5CCN(C)CC5)cc4OC)nc32)nc1,"Mitogen-activated protein kinase 10 (MAPK10, Homo sapiens, UniProt P53779)","kinase activity, inhibitor",,"0.5 µM, kinase JNK3",,inhibition,3%
Oc1ccc2c3c1O[C@H]1[C@@H](O)CC[C@@]4(O)[C@@H](C2)N(CC2CCC2)CC[C@]314,"GPR32 (Homo sapiens, UniProt O75388)","β-arrestin recruitment, TANGO luminescence",,concentration not given,baseline: basal luminescence,log2 fold change,0.264
N.N.[Cl][Pt][Cl],SGC-7901,CCK-8,,with glutamine,,IC50,13.2 µM
N.N.[Cl][Pt][Cl],NAMALWA,"cell proliferation, CellTiter-Glo",,72 h,,IC50,0.29 µM
O=C(NOC[C@H](O)CO)c1ccc(F)c(F)c1Nc1ccc(I)cc1F,MPNST-724,cell confluence,,,,IC50,0.279 µM
CO[C@H]1C[C@@H]2CC[C@@H](C)[C@@](O)(O2)C(=O)C(=O)N2CCCC[C@H]2C(=O)O[C@H]([C@H](C)C[C@@H]2CC[C@@H](OC(=O)NCCOCCOCCOCCOCCOCCOCCOCCOCCC(=O)N3CCc4cc(Cn5nc(-c6ccc7oc(N)nc7c6)c6c(N)ncnc65)ccc4C3)[C@H](OC)C2)C[C@@H](O)[C@H](C)/C=C(\C)[C@@H](O)[C@@H](OC)C(=O)[C@H](C)C[C@H](C)/C=C/C=C/C=C/1C,,"phase 1 dose escalation, refers to: mucositis",advanced solid tumour patients,"intravenous, 12 mg weekly, any grade",,dose-reducing adverse events,0%
COc1cc2c(Oc3ccc4[nH]c(C)cc4c3F)ccnc2cc1OCC1(N)CC1,,,paediatric recurrent refractory sarcoma,8 mg,,grade 3 Diarrhoea,0%
COc1cc(Nc2ncc(F)c(Nc3ccc4c(n3)NC(=O)C(C)(C)O4)n2)cc(OC)c1OC,"Sphingomyelin phosphodiesterase (SMPD1, Homo sapiens, UniProt P17405)","enzyme activity, inhibitor",,,,IC50,> 10 µM
c1ccc([Se][Au]=[c]2n(C3CCCCC3)ccn2C2CCCCC2)cc1,Vero E6,"cytotoxicity, crystal violet",,,,IC50,2 µM
COc1c(C)c2c(c(O)c1C/C=C(\C)CCC(=O)O)C(=O)OC2,PANC-1,cell proliferation,pancreas cancer,,,IC50,2.63 µM
CC[C@H](C)[C@H](NC(=O)[C@H](CCCCN)NC(=O)[C@@H](NC(=O)[C@H](CCCNC(=N)N)NC(=O)[C@@H](NC(=O)[C@@H](CCCNC(=N)N)NC(=O)[C@@H](CCCNC(=N)N)NC(=O)[C@@H](CCCNC(=N)N)NC(=O)[C@@H](CCCNC(=N)N)NC(=O)[C@@H](CCCNC(=N)N)NC(=O)[C@H](N)CCCNC(=N)N)[C@@H](C)O)[C@@H](C)O)C(=O)N[C@@H](CC(=O)O)C(=O)N[C@@H](Cc1c[nH]c2ccccc12)C(=O)NC(C)(C)C(=O)N[C@@H](CCCCN)C(=O)N[C@H](C(=O)N[C@@H](CC(C)C)C(=O)NC(C)(C)C(=O)N[C@@H](CCCCN)C(=O)NCCCCCC(=O)NCCCC[C@H](NC(=O)CCCCCNC(=O)[C@H](CCCCN)NC(=O)C(C)(C)NC(=O)[C@H](CC(C)C)NC(=O)[C@@H](NC(=O)[C@H](CCCCN)NC(=O)C(C)(C)NC(=O)[C@H](Cc1c[nH]c2ccccc12)NC(=O)[C@H](CC(=O)O)NC(=O)[C@@H](NC(=O)[C@H](CCCCN)NC(=O)[C@@H](NC(=O)[C@H](CCCNC(=N)N)NC(=O)[C@@H](NC(=O)[C@@H](CCCNC(=N)N)NC(=O)[C@@H](CCCNC(=N)N)NC(=O)[C@@H](CCCNC(=N)N)NC(=O)[C@@H](CCCNC(=N)N)NC(=O)[C@@H](CCCNC(=N)N)NC(=O)[C@H](N)CCCNC(=N)N)[C@@H](C)O)[C@@H](C)O)[C@@H](C)CC)[C@@H](C)CC)C(N)=O)[C@@H](C)CC,SK-MEL-5,,,,,IC50,~5 µM
CC[C@H](C)[C@@H]1NC(=O)[C@@H]2CCCN2C(=O)[C@H](CC(C)C)NC(=O)[C@H](CC(C)C)NC(=O)CNC(=O)[C@@H](NC(=O)[C@@H](NC(=O)[C@H](CC(=O)O)NC(=O)CNC(=O)[C@@H](NC(=O)[C@H](C)NC(=O)CNC(=O)[C@H](CCCCN)NC(=O)[C@H](CC(C)C)NC(=O)[C@H](CC(C)C)NC(=O)[C@H](CCCCN)NC(=O)CNC(=O)[C@@H](NC(=O)[C@@H](N)CC(C)C)C(C)C)C(C)C)C(C)C)CSSC[C@@H](C(=O)O)NC1=O,,"RNA-seq, refers to: Ccl6 mRNA","mouse traumatic brain injury, frontal cortex and hippocampus",dose not given,baseline: TBI plus compound vs TBI,log2 fold change,-2.36
[Se]=c1n(C2CCCCC2)ccn1C1CCCCC1,H157 lung carcinoma cells,"cell viability, MTT",,72 h,,IC50,9.8 µM
O=C(Oc1ccc(F)cc1)[c-]1cccc1.[Fe+2].c1cc[cH-]c1,MCF-10A,"cell growth, MTT",,72 h,,IC50,no effect
C[C@H]1COCCN1c1nc(NCc2cccnc2C(F)(F)F)c2cccnc2n1,cardiomyocytes,mitochondrial membrane potential,,in vitro toxicology,,IC50,> 100 µM
N.N.[Cl][Pt][Cl],A549 (compound-resistant),"cell growth, inhibitor, CellTiter-Glo",,96 h,,IC50,9.6 µM
Cc1cc(C)c(-n2ccn(-c3c(C)cc(C)cc3C)c2=[Se])c(C)c1,H157 lung carcinoma cells,"cell viability, MTT",,72 h,,IC50,> 10 µM
CN1CCN(S(=O)(=O)c2cc([N+](=O)[O-])ccc2N(CCOS(C)(=O)=O)CCOS(C)(=O)=O)CC1,HCT-116 overexpressing AKR1C4,"cell growth, sulforhodamine B",,96 h,,IC50,9.4 µM
